Assay results pooled from the literature.
Protocols differ between the studies behind these lines. Several values in a cell are separate wells, animals, samples, runs or records. ± gives the spread as reported.
LGALS1: Galectin-1 (LGALS1, Homo sapiens, UniProt P09382)
UniProt P09382, sequence (whole entry, looked up): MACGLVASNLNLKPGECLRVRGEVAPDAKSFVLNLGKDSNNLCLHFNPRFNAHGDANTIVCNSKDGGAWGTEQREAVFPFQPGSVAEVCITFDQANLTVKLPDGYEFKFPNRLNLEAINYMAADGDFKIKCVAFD
BPTF bromodomain: Nucleosome-remodeling factor subunit BPTF, bromodomain (BPTF, Homo sapiens, UniProt Q12830)
UniProt Q09472, sequence (whole entry, looked up): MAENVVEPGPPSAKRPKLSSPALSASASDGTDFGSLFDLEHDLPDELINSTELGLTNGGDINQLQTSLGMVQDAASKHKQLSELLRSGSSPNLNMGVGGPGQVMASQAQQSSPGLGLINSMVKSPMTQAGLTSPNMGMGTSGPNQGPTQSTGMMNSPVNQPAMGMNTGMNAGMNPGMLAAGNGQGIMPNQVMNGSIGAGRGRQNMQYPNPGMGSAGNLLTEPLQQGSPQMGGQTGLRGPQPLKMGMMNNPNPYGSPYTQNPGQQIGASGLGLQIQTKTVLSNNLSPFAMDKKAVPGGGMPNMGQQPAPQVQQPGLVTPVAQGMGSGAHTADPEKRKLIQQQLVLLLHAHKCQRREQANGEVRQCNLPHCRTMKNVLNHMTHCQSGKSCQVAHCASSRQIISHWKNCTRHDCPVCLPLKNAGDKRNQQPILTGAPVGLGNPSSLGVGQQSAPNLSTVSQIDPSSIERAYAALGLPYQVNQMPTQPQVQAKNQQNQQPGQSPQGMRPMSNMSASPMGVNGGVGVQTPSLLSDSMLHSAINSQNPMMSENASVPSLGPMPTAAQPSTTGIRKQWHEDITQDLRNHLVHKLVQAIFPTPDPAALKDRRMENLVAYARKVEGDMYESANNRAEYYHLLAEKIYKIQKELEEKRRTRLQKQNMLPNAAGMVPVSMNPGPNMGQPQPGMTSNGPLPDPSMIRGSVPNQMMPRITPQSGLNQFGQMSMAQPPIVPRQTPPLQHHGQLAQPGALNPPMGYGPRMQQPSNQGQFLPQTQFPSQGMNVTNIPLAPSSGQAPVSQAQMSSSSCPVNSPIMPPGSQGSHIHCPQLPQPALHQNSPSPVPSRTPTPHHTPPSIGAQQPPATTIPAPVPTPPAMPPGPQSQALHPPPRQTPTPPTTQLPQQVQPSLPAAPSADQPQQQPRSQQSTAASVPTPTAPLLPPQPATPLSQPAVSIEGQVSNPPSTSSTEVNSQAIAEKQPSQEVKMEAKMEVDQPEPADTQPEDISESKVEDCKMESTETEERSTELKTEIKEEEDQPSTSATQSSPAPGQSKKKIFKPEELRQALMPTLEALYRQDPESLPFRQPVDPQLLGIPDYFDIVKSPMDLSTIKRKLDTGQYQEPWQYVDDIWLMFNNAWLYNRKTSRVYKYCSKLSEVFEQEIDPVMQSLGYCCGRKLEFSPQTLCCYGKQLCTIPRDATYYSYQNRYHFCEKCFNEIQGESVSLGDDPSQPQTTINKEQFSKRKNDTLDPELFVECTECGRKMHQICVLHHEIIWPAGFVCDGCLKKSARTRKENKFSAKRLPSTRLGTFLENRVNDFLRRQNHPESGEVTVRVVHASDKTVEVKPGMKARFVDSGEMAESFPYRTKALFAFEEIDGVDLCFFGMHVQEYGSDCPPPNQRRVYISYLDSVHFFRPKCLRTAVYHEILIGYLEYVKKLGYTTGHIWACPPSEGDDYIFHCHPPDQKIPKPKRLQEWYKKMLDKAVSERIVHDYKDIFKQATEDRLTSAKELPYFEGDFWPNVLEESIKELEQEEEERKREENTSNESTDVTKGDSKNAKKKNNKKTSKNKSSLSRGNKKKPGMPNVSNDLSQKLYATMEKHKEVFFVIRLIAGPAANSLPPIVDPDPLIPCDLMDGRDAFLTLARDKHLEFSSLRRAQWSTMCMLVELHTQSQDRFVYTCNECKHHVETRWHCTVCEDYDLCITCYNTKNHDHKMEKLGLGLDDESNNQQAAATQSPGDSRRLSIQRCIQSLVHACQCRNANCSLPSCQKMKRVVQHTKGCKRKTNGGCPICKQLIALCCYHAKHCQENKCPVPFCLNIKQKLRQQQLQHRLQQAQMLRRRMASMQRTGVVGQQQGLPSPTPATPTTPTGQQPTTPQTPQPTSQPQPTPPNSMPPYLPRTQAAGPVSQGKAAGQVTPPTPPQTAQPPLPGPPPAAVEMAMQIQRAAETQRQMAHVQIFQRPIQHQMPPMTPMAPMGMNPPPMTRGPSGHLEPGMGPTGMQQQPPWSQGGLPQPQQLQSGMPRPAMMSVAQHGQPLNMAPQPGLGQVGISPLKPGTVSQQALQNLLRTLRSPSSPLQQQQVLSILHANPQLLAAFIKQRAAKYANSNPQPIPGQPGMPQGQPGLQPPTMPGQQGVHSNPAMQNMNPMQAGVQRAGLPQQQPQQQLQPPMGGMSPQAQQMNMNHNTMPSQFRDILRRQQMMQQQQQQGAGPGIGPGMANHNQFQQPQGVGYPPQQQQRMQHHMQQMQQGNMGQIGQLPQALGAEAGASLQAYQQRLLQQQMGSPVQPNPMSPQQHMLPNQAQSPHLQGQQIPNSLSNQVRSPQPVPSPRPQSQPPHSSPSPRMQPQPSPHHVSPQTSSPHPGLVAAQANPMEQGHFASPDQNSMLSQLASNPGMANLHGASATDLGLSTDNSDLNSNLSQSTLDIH
UniProt Q8I5R7, sequence (whole entry, looked up): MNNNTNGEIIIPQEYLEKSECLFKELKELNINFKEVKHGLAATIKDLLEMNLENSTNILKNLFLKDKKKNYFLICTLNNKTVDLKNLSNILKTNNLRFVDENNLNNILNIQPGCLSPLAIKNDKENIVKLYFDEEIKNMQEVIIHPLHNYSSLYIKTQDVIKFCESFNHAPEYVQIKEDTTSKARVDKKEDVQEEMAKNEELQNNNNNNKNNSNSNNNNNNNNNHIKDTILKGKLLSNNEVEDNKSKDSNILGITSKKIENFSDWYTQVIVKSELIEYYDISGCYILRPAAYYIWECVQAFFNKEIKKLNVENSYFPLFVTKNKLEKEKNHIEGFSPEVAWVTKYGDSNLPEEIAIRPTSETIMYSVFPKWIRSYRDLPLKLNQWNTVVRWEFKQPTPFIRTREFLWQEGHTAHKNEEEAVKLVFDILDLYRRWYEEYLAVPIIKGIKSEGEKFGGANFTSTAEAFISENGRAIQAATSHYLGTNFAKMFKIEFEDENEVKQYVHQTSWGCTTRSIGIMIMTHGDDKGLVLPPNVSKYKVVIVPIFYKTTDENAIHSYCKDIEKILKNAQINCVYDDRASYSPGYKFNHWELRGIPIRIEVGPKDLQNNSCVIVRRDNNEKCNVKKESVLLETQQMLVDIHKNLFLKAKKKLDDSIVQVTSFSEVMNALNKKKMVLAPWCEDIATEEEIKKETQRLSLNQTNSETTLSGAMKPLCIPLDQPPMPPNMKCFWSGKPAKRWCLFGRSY
UniProt P18893, sequence (whole entry, looked up): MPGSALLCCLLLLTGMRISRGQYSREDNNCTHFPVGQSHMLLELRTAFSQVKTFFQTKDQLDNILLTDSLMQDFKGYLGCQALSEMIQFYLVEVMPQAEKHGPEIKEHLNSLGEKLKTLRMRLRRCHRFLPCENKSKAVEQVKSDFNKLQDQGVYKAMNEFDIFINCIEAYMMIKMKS
UniProt Q13009, sequence (whole entry, unmodified, looked up): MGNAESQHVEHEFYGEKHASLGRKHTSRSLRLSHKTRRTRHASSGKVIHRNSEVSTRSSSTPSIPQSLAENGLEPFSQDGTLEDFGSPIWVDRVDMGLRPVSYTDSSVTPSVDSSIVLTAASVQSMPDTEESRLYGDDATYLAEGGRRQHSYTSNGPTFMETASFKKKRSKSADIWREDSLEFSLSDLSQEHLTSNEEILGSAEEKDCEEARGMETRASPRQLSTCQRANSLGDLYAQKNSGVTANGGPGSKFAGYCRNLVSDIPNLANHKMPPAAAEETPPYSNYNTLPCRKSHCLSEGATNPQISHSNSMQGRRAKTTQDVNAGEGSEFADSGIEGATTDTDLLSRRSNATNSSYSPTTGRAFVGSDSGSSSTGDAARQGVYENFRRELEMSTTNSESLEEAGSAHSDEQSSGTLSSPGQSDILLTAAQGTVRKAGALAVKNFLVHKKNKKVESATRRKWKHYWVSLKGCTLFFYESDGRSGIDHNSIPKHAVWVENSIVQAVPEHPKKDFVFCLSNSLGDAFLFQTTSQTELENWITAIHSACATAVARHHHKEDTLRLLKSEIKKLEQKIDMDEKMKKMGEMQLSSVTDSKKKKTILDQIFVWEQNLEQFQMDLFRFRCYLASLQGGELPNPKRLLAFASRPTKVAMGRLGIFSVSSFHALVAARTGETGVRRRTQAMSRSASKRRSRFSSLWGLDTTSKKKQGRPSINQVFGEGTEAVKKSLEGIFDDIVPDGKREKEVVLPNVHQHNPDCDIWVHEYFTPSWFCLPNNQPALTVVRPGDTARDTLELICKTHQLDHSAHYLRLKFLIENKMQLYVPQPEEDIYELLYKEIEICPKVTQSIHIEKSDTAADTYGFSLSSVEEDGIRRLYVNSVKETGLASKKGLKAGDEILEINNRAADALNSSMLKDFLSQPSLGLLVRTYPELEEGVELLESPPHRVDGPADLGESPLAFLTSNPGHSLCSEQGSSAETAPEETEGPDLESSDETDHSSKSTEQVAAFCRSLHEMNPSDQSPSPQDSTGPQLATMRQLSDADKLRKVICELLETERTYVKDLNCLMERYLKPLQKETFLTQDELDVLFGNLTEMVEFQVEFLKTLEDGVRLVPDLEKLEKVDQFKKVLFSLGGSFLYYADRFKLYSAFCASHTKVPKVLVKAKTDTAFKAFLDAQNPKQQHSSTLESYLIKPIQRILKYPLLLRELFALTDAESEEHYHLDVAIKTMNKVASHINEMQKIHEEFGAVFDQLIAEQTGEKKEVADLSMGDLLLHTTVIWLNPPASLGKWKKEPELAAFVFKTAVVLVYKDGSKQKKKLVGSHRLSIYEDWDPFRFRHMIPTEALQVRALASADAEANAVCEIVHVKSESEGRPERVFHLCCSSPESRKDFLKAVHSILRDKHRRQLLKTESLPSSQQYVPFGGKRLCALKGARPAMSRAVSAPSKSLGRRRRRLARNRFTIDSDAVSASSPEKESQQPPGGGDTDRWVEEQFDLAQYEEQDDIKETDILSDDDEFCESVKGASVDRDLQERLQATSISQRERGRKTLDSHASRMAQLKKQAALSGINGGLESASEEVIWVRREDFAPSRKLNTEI

| SMILES | target | assay | system | setting | Kd |
| --- | --- | --- | --- | --- | --- |
| C[Si](C)(C)c1cc2c3c(c1)O[C@H](CO)[C@H](O)[C@@H]3OC2 | LGALS1 | ligand displacement, FP | – | – | > 6000 µM |
| CC(O)c1c(Oc2ccc(F)c(NC(=O)Cc3cccc(C(F)(F)F)c3)c2)ccc2nc(NC(=O)C3CC3)sc12 (stereo not drawn) | RIPK3 (Homo sapiens, UniProt Q9Y572) | binding, competition with immobilised ligand | – | – | 0.14 µM |
| CC(C)C[C@H](NC(=O)CNC(=O)[C@H](CC(C)C)NC(=O)[C@@H](N)CCC(=O)O)C(=O)N[C@H](C(=O)N1CCC[C@H]1C(=O)N[C@@H](COP(=O)(O)O)C(=O)N1CCC[C@H]1C(=O)N[C@@H](C)C(=O)N[C@@H](CO)C(=O)N[C@@H](CC(C)C)C(=O)N[C@@H](Cc1c[nH]c2ccccc12)C(=O)N1CCC[C@H]1C(=O)N1CCC[C@H]1C(=O)N1CCC[C@H]1C(=O)N1CCC[C@H]1C(=O)N[C@@H](CO)C(=O)N1CCC[C@H]1C(=O)N[C@@H](C)C(=O)N1CCC[C@H]1C(=O)N[C@@H](CO)C(=O)N[C@@H](CO)C(=O)N[C@H](C(=O)N[C@@H](CCCCN)C(=O)O)[C@@H](C)O)C(C)C | Peptidyl-prolyl cis-trans isomerase NIMA-interacting 1, PPIase domain (PIN1, Homo sapiens, UniProt Q13526) | binding, NMR titration | isolated PPIase domain | pH 6.8, 25 °C | 230 ± 42 µM |
| CCCc1cc2c3c(c1CCC)O[C@H](CO)[C@H](O)[C@@H]3OC2 | LGALS1 | ligand displacement, FP | – | – | 760 µM |
| CC(=O)N[C@@H]1[C@@H](O[C@@H]2O[C@H](C(=O)O)[C@@H](O[C@@H]3O[C@H](CO)[C@@H](O)[C@H](O[C@@H]4O[C@H](C(=O)O)[C@@H](O)[C@H](O)[C@H]4O)[C@H]3NC(C)=O)[C@H](O)[C@H]2O)[C@H](O)[C@@H](CO)O[C@H]1N=[N+]=[N-] | Interleukin-10 (Il10, Mus musculus, UniProt P18893) | fluorescence polarization competition | – | – | no binding |
| CC[C@H](C)[C@H](NC(=O)[C@H](C)NC(=O)[C@H](CCCCN)NC(=O)[C@@H](NC(=O)[C@H](CCC(=O)O)NC(=O)[C@H](CCC(=O)O)NC(=O)[C@H](CCC(=O)O)NC(=O)[C@H](CO)NC(=O)[C@H](CC(C)C)NC(=O)[C@H](CC(=O)O)NC(=O)[C@H](CC(C)C)NC(=O)CNC(=O)[C@H](CCCNC(=N)N)NC(=O)[C@H](CC(C)C)NC(=O)[C@H](CO)NC(=O)CNC(=O)CNC(=O)CNC(=O)CCCC[C@@H]1SC[C@@H]2NC(=O)N[C@@H]21)C(C)C)C(=O)N[C@@H](CC(C)C)C(=O)N[C@@H](CC(=O)O)C(=O)N[C@@H](CCC(=O)O)C(=O)N[C@H](C(=O)N[C@H](C(=O)N[C@@H](CCCCN)C(=O)N[C@@H](CC(=O)O)C(=O)O)C(C)C)[C@@H](C)CC | Fab B11 antibody (human) | binding, biolayer interferometry | – | together with: biotinylated peptide on tips | 0.053 ± 0.001 µM |
| Fc1cc2c(c3ncccc13)OCN(CCc1cccc(Br)c1)C2 | rplL (Escherichia coli, UniProt P0A7K2) | binding, SPR | – | – | 13.8 µM |
| CC(=O)NCCCC[C@H](NC(=O)CNC(=O)CNC(=O)[C@H](C)NC(=O)[C@@H](N)Cc1ccc(O)cc1)C(=O)N[C@@H](C)C(=O)NCC(=O)N[C@@H](CCCCN)C(=O)N[C@@H](CC(=O)O)C(=O)N[C@@H](CO)C(=O)NCC(=O)N[C@@H](CCCCN)C(=O)N[C@@H](C)C(=O)N[C@@H](CCCCNC(C)=O)C(=O)N[C@@H](C)C(=O)N[C@@H](CCCCN)C(=O)N[C@@H](C)C(=O)N[C@H](C(=O)N[C@@H](CO)C(=O)N[C@@H](CCCNC(=N)N)C(N)=O)C(C)C | BPTF bromodomain | bromodomain binding, PrOF NMR titration | – | pH 7.4, 5-fluorotryptophan-labelled bromodomain, 40-50 µM | 790 µM |
| CC[C@H](C)[C@H](NC(=O)[C@H](CCCCN)NC(=O)[C@H](CCCCN)NC(=O)[C@@H](NC(=O)[C@H](CCC(=O)O)NC(=O)[C@H](C)NC(=O)[C@H](CCC(=O)O)NC(=O)[C@H](CO)NC(=O)[C@H](CC(C)C)NC(=O)[C@H](CC(=O)O)NC(=O)[C@H](CC(C)C)NC(=O)CNC(=O)[C@H](CCCNC(=N)N)NC(=O)[C@H](CC(C)C)NC(=O)[C@H](CO)NC(=O)CNC(=O)CNC(=O)CNC(=O)CCCC[C@@H]1SC[C@@H]2NC(=O)N[C@@H]21)C(C)C)C(=O)N[C@@H](CC(C)C)C(=O)N[C@@H](CC(=O)O)C(=O)N[C@@H](CCC(=O)O)C(=O)N[C@H](C(=O)N[C@H](C(=O)N[C@@H](CCCCN)C(=O)N[C@@H](CC(=O)O)C(=O)O)C(C)C)[C@@H](C)CC | Fab B11 antibody (human) | binding, biolayer interferometry | – | together with: biotinylated peptide on tips | 0.043 ± 0.001 µM |
| Oc1c(I)cc(Cl)cc1CN1CCC(N2CCC(O)CC2)CC1 | TP53 (Homo sapiens, UniProt P04637, M133L/N239Y/N268D/V203A/Y220C) | – | – | 20 °C, protein 75 µM | 247 ± 44 µM |
| CC(=O)NCCCC[C@H](NC(=O)CNC(=O)[C@H](C)NC(=O)[C@H](CCCCN)NC(=O)CNC(=O)CNC(=O)[C@H](C)NC(=O)[C@@H](N)Cc1ccc(O)cc1)C(=O)N[C@@H](CC(=O)O)C(=O)N[C@@H](CO)C(=O)NCC(=O)N[C@@H](CCCCN)C(=O)N[C@@H](C)C(=O)N[C@@H](CCCCNC(C)=O)C(=O)N[C@@H](C)C(=O)N[C@@H](CCCCN)C(=O)N[C@@H](C)C(=O)N[C@H](C(=O)N[C@@H](CO)C(=O)N[C@@H](CCCNC(=N)N)C(N)=O)C(C)C | BPTF bromodomain | surface plasmon resonance | – | – | 195 ± 30 µM |
| OC[C@H]1Oc2cc(Cc3ccc(F)cc3)cc3c2[C@@H](OC3)[C@H]1O | Galectin-9, N-terminal CRD (LGALS9, Homo sapiens, UniProt O00182) | binding, competitive fluorescence polarization | – | 20 °C, galectin-9 N-terminal domain 1.0 µM | > 1000 µM |
| Cc1ccc2c(c1)OC(O)(C(=O)O)C(=O)N2Cc1ccccc1 (stereo not drawn) | Dihydroxy-acid dehydratase, chloroplastic (DHAD, Arabidopsis thaliana, UniProt Q9LIR4) | microscale thermophoresis | – | – | < 3 µM |
| CC(=O)NCCCC[C@H](NC(=O)[C@H](CCCCN)NC(=O)[C@H](Cc1c[nH]cn1)NC(=O)[C@H](CCCNC(=N)N)NC(C)=O)C(=O)Nc1ccc2c(C)cc(=O)oc2c1 | SIRT1 (Homo sapiens, UniProt Q96EB6, C253S/C268S/C501S/C502S/del513-640/E230K) | peptide binding, isothermal titration calorimetry | 10% glycerol | pH 7.5, 25 °C, E230K mutant, together with: resveratrol 0.5 mM | 19.5 µM |
| Cc1ccc(NC(=O)c2c(C)oc3ccc(O)c(CN4CCCCCC4)c23)cc1 | MYC Pu22 G-quadruplex DNA | surface plasmon resonance | – | – | 4.5 ± 1.4 µM |
| CC(C)CC[C@@H]1NCCN([C@@H](CCC(C)C)C(=O)N2CCN([C@@H](CCC(N)=O)C(N)=O)C(=O)[C@@H]2C)C1=O | Histone acetyltransferase p300, CH1 domain (EP300, Homo sapiens, UniProt Q09472) | binding, tryptophan fluorescence | – | – | 0.16 ± 0.06 µM |
| CC[C@H](C)[C@H](NC(=O)[C@H](CC(=O)O)NC(=O)[C@H](CC(=O)O)NC(=O)[C@@H]1CCCN1C(=O)[C@H](C)NC(=O)[C@H](CC(C)C)NC(=O)[C@H](CCSC)NC(=O)[C@H](CC(C)C)NC(=O)[C@H](CC(=O)O)NC(=O)[C@H](CC(=O)O)NC(=O)[C@H](CCSC)NC(=O)[C@H](C)NC(=O)[C@H](CCC(N)=O)NC(=O)[C@H](C)NC(=O)[C@@H]1CCCN1C(=O)[C@H](CC(C)C)NC(=O)[C@@H]1CCCN1C(=O)[C@H](C)NC(=O)[C@H](CC(C)C)NC(=O)[C@@H](NC(=O)[C@H](CC(N)=O)NC(=O)[C@H](CC(N)=O)NC(=O)[C@H](CCC(=O)O)NC(=O)[C@@H]1CCCN1C(=O)[C@H](CC(C)C)NC(=O)[C@H](CC(C)C)NC(=O)[C@H](CCCCN)NC(=O)[C@H](Cc1c[nH]c2ccccc12)NC(=O)[C@H](CC(C)C)NC(=O)[C@H](CC(=O)O)NC(=O)[C@H](C)NC(=O)[C@H](Cc1ccccc1)NC(=O)[C@H](C)NC(=O)[C@H](CCC(=O)O)NC(=O)[C@H](CCC(N)=O)NC(=O)[C@H](C)NC(=O)[C@H](CC(C)C)NC(=O)[C@@H]1CCCN1C(=O)[C@@H]1CCCN1C(=O)[C@H](CCC(=O)O)NC(=O)[C@@H](NC(=O)[C@H](CO)NC(=O)[C@@H]1CCCN1C(=O)[C@H](CC(=O)O)NC(=O)[C@H](CO)NC(=O)[C@H](CCC(N)=O)NC(=O)[C@@H]1CCCN1C(=O)[C@H](CCC(=O)O)NC(=O)[C@H](CCC(=O)O)NC(=O)[C@@H](N)CCSC)C(C)C)C(C)C)C(=O)N[C@@H](CCC(=O)O)C(=O)N[C@@H](CCC(N)=O)C(=O)N[C@@H](Cc1c[nH]c2ccccc12)C(=O)N[C@@H](Cc1ccccc1)C(=O)N[C@@H](C)C(=O)N[C@@H](CCC(=O)O)C(=O)N[C@@H](CC(=O)O)C(=O)O | Histone acetyltransferase p300, IBiD domain (EP300, Homo sapiens, UniProt Q09472) | fluorescence anisotropy | – | IBiD domain, together with: labelled p53 TAD peptide | 5.8 ± 0.4 µM |
| CC(=O)NCCCC[C@H](NC(=O)CNC(=O)[C@H](CO)NC(=O)[C@H](CC(=O)O)NC(=O)[C@H](CCCCNC(C)=O)NC(=O)CNC(=O)[C@H](C)NC(=O)[C@H](CCCCN)NC(=O)CNC(=O)CNC(=O)[C@H](C)NC(=O)[C@@H](N)Cc1ccc(O)cc1)C(=O)N[C@@H](C)C(=O)N[C@@H](CCCCN)C(=O)N[C@@H](C)C(=O)N[C@@H](CCCCN)C(=O)N[C@@H](C)C(=O)N[C@H](C(=O)N[C@@H](CO)C(=O)N[C@@H](CCCNC(=N)N)C(N)=O)C(C)C | BPTF bromodomain | bromodomain binding, PrOF NMR titration | – | pH 7.4, 5-fluorotryptophan-labelled bromodomain, 40-50 µM | 780 µM |
| Cc1cc(N2CC[C@@](C#N)(C3CC3)C2=O)cc(NC(=O)Cc2ccccc2)n1 | Proline--tRNA ligase (Plasmodium falciparum, UniProt Q8I5R7) | binding, microscale thermophoresis | – | – | 0.243 µM and 0.313 µM |
| C[C@H](NC(=O)[C@H](Cc1ccc(O)cc1)NC(=O)[C@H](Cc1ccccc1)NC(=O)[C@H](CCC(=O)O)NC(=O)[C@H](CCC(=O)O)NC(=O)[C@H](CCC(N)=O)NC(=O)[C@H](CCCCN)NC(=O)[C@@H](NS(=O)(=O)c1cccc2c(N(C)C)cccc12)[C@@H](C)O)C(=O)O | Rho guanine nucleotide exchange factor TIAM1, PDZ domain (TIAM1, Homo sapiens, UniProt Q13009, K879E) | fluorescence anisotropy | – | 25 °C, together with: N-terminally dansylated peptide | 64.7 ± 0.9 µM |
| CC[C@H](C)[C@H](NC(=O)[C@@H]1CCCN1C(=O)[C@@H](NC(=O)[C@H](C)N)C(C)C)C(=O)N[C@@H](C)C(=O)N[C@@H](CCC(N)=O)C(=O)N[C@@H](CCCCN)C(=O)N[C@@H](CO)C(=O)N[C@@H](CCC(=O)O)C(=O)N1CCC[C@H]1C(=O)N[C@@H](Cc1c[nH]cn1)C(=O)N[C@@H](CO)C(=O)N[C@@H](CC(C)C)C(=O)N[C@@H](CO)C(=O)N[C@@H](CO)C(=O)O | BIRC5 (Homo sapiens, UniProt O15392) | binding, ITC | – | pH 7.5 | 121 µM |
| O=C(O)CCc1ccc(O)cc1 | p-hydroxyphenylacetate 3-hydroxylase, reductase component (C1-hpah, Acinetobacter baumannii, UniProt Q6Q271) | ITC | – | pH 7, together with: 1 mM FMN | 174 ± 6.5 µM |
| CC(C=CC=CC=CC1=C(C)CCCC1(C)C)=CCO | Rhodopsin, apoprotein (opsin) (RHO, Bos taurus, UniProt P02699) | Trp fluorescence quenching | opsin membranes | titration up to 1 µM | 0.0349 µM |
| CN(C(=O)CNCc1ccc(Cl)c(Cl)c1)[C@H](Cc1ccccc1)C(=O)N(CCc1ccc(C(F)(F)F)cc1)CC(=O)NCC(N)=O | MMP14 (Homo sapiens, UniProt P50281) | binding, FP | – | – | 67 µM |

Some of these lines once more:
| SMILES | target | assay | system | setting | Kd |
| --- | --- | --- | --- | --- | --- |
| Oc1c(I)cc(Cl)cc1CN1CCC(N2CCC(O)CC2)CC1 | TP53 (Homo sapiens, UniProt P04637, M133L/N239Y/N268D/V203A/Y220C) | – | – | 20 °C, protein 75 µM | 247 ± 44 µM |
| CC(=O)NCCCC[C@H](NC(=O)CNC(=O)[C@H](C)NC(=O)[C@H](CCCCN)NC(=O)CNC(=O)CNC(=O)[C@H](C)NC(=O)[C@@H](N)Cc1ccc(O)cc1)C(=O)N[C@@H](CC(=O)O)C(=O)N[C@@H](CO)C(=O)NCC(=O)N[C@@H](CCCCN)C(=O)N[C@@H](C)C(=O)N[C@@H](CCCCNC(C)=O)C(=O)N[C@@H](C)C(=O)N[C@@H](CCCCN)C(=O)N[C@@H](C)C(=O)N[C@H](C(=O)N[C@@H](CO)C(=O)N[C@@H](CCCNC(=N)N)C(N)=O)C(C)C | BPTF bromodomain | surface plasmon resonance | – | – | 195 ± 30 µM |
